# Measured values pooled from the literature.
# Compare with care: the assays were run in different laboratories. Values joined by “and” are separate records of one study, mostly repeats; a detail may differ. ± gives the spread as reported.
SMILES,target or system,assay,system,setting,how to read,measurement,result
NC[C@@H](C(=O)Nc1ccc(-c2cn[nH]c2)cc1)c1ccccc1,,tonometry,"Macaca cyclopis, ocular normotensive","ocular, 0.1%, 4 h",,IOP,17.1 mmHg
CC(C)C[C@H](NC(=O)[C@H](CC(=O)O)NC(=O)CNC(=O)[C@@H](N)CCCNC(=N)N)C(=O)N[C@@H](C)C(=O)N[C@H](C(=O)N[C@@H](CC(C)C)C(=O)N[C@@H](CCCNC(=N)N)C(=O)N[C@@H](CCC(N)=O)C(=O)N[C@@H](CC(C)C)C(=O)N[C@@H](C)C(=O)N[C@@H](CCC(N)=O)C(=O)N[C@@H](CCC(=O)O)C(=O)N[C@@H](CC(=O)O)C(=O)NCC(=O)N[C@H](C(=O)N[C@H](C(=O)NCC(=O)N[C@H](C(=O)N[C@@H](CCCNC(=N)N)C(=O)NCCOCCOCCOCCOCCOCCOCCOCCOCCOCCOCCOCCOCCC(=O)N[C@@H](CS)C(N)=O)C(C)C)C(C)C)C(C)C)[C@@H](C)O,,ex vivo NIR imaging,"NOD/SCID mice, xenograft, H460 xenograft","intravenous, 30 µg, 24 h",reference: liver,fluorescence signal ratio,0.041 and 0.057 and 0.012
CNCc1ccc(-c2cc(=O)c3ccc4[nH]c(C(F)(F)F)nc4c3o2)cc1,,ELISA,"3xTg mice, brain lysate","dose not given, 3 months",,Aβ42 level,decreased
O=C(N/N=C/c1cc[n+](Cc2ccccc2)c2ccccc12)c1ccc2ccc(C(=O)N/N=C/c3cc[n+](Cc4ccccc4)c4ccccc34)nc2n1,MYC parallel G4 DNA,FRET melting,,"1 µM, DNA 0.2 µM",,ΔTm,14.3 ± 0.6 °C
COC1OC(C)C(OC2OC(C)C(OS(=O)(=O)O)C(OC3OC(C)C(OS(=O)(=O)O)C(OS(=O)(=O)O)C3OS(=O)(=O)O)C2OS(=O)(=O)O)C(OS(=O)(=O)O)C1OS(=O)(=O)O (centres unmarked),,,human plasma,128 µg/mL,,prothrombin time,15.2 ± 0.1 s
COC1CN([C@H]2CC[C@H]([C@@]3(C)Oc4c(Cl)cc(C(=O)NCc5c(SC)cc(C)[nH]c5=O)c(C)c4O3)CC2)C1,,"RNA-seq, item: GLIS2 mouse homolog","mouse, HT-1376 xenograft, whole blood",dose not given,reference: vehicle,log2 fold change,3
Oc1cc2c(cc1O)C(c1cccc3[nH]ccc13)NCC2 (centres unmarked),,ABTS scavenging,,"10 min, dark",,IC50,8.75 µM
CN1CCC[C@]1(C)/C=C/S(=O)(=O)NC(=O)Nc1c2c(cc3c1CCC3)CCC2,,,"human, whole blood ex vivo","12.5 mg twice daily, day 14, 36 h, multiple ascending dose, with: LPS and ATP",,IL-18 inhibition,2.8%
CC(=O)N1c2ccc(-c3ccc(CNC(=O)c4cn5cc(-c6cnc(N)nc6)nc(N6CCOCC6)c5n4)cc3)cc2CC[C@@H]1C,,,mice transplanted Eµ-Myc lymphoma,"35 mg/kg, 15 d dosing",,sustained complete lymphoma clearance,10%
Cc1cnc(Nc2ccc(OCCN3CCCC3)cc2)nc1Nc1cccc(S(=O)(=O)NC(C)(C)C)c1,,"AlphaScreen signal, AlphaScreen counter screen",His6 peptide without bromodomain,"50 µM, assay interference check",,inhibition,43%
CN1CCCNC(=O)c2cccc(c2)C(=O)NCCCN(C)CCCNc2cccc3c2C(=O)c2cccc(c2C3=O)NCCC1,,,"KSN/Slc nude mice, SAS xenograft","dose not given, day 10, 240 h",,tumour volume,205 mm3 and 332 mm3 and 198 mm3 and 389 mm3 and 267 mm3
COC1OC(C)C(O)C(OC2OC(C)C(O)C(OS(=O)(=O)O)C2OS(=O)(=O)O)C1OS(=O)(=O)O (centres unmarked),,,human plasma,128 µg/mL,,prothrombin time,15.3 ± 0.7 s
O=C1/C(=C/c2cc(Cl)c(O)c(Cl)c2)CNC/C1=C\c1cc(Cl)c(O)c(Cl)c1,,ABTS scavenging,,20 min,,IC50,79.6 µg/mL
COC1OC(C)C(OS(=O)(=O)O)C(OC2OC(C)C(OS(=O)(=O)O)C(OC3OC(C)C(OS(=O)(=O)O)C(OC4OC(C)C(OS(=O)(=O)O)C(OC5OC(C)C(OS(=O)(=O)O)C(OC6OC(C)C(OS(=O)(=O)O)C(OC7OC(C)C(OS(=O)(=O)O)C(OC8OC(C)C(OS(=O)(=O)O)C(OC9OC(C)C(OS(=O)(=O)O)C(OC%10OC(C)C(OS(=O)(=O)O)C(OS(=O)(=O)O)C%10O)C9O)C8O)C7O)C6O)C5O)C4O)C3O)C2O)C1O (centres unmarked),,,human plasma,128 µg/mL,reference: control,prothrombin time prolongation,0.98 fold
COc1cc(O)ccc1CCC(c1ccc(O)cc1)c1cc2c(c(C)c1O)OC(c1ccc(O)cc1)CC2 (mixture of isomers),,item: 5-HETE,human whole blood,"0.3 µM, with: Escherichia coli",,amount,2600 ± 584 pg/mL blood
CC(C)(C)NCC(SS(=O)(=O)O)c1ccccc1 (centres unmarked),,,Schistosoma mansoni-infected mice,"600 mg/kg single, day 15, perfusion day 44",,liver weight,1.76 g
CNS(=O)(=O)Nc1nccc(Cc2c(C)c3ccc(Oc4ncccc4F)cc3oc2=O)c1F,LC-2-ad,"cell viability, CellTiter-Glo",,7 days,,IC50,> 1 µM
COC1OC(C)C(OS(=O)(=O)O)C(OC2OC(C)C(OS(=O)(=O)O)C(OC3OC(C)C(OS(=O)(=O)O)C(OC4OC(C)C(OS(=O)(=O)O)C(OC5OC(C)C(OS(=O)(=O)O)C(OC6OC(C)C(OS(=O)(=O)O)C(OC7OC(C)C(OS(=O)(=O)O)C(OS(=O)(=O)O)C7O)C6O)C5O)C4O)C3O)C2O)C1O (centres unmarked),,,human plasma,128 µg/mL,reference: control,prothrombin time prolongation,1 fold
Cc1ncsc1-c1ccc(C(C)NC(=O)C2CC(O)CN2C(=O)C(NC(=O)CCCCCCCCCCN2CCCC(Nc3ncc(Cl)c(Nc4ccccc4S(=O)(=O)C(C)C)n3)C2)C(C)(C)C)cc1 (centres unmarked),22Rv1,"RNA-seq, item: SHOX2 mRNA",,concentration not given,reference: DMSO,log2 fold change,-3.09
CC1(C)CC[C@@]2(CO)C(=C3C=C[C@@H]4[C@@]5(C)CC[C@H](O)[C@@](C)(CO)[C@@H]5CC[C@@]4(C)[C@]3(C)C[C@@H]2O)C1,,,chronic-plus-binge ethanol-fed mice,"intraperitoneal, 50 mg/kg daily, 7 d",,liver to body weight ratio,0.047% and 0.042% and 0.037%
COc1ccccc1-c1ccncc1C(=O)Nc1nnc(OCc2ccc(Cl)cc2)s1,,,"Brca1 Δ11/Δ11 MEF sgGFP, Mus musculus","5 µM, mean of all runs",reference: 0 µM,colony survival,72.2%
CCC(=O)N[C@@H](C)C(=O)OCC(=O)N[C@@H](C)C(=O)O,,,water,"pH 7, 65 °C",,chain scission rate constant,0.15 h⁻¹
Cc1cn(-c2cc(NC(=O)c3cc(C#Cc4cnc5c(Nc6cnn(C)c6)cccn45)c(C)cc3F)cc(C(C)(C)C#N)c2)cn1,,platelet aggregation,platelet-rich plasma,"1 µM, DMSO 130.6, with: collagen 2 mg/mL",,lag time,160 s
COC1OC(C)C(OS(=O)(=O)O)C(OC2OC(C)C(OS(=O)(=O)O)C(OC3OC(C)C(OS(=O)(=O)O)C(OC4OC(C)C(OS(=O)(=O)O)C(OS(=O)(=O)O)C4OS(=O)(=O)O)C3OS(=O)(=O)O)C2OS(=O)(=O)O)C1OS(=O)(=O)O (centres unmarked),,,human plasma,128 µg/mL,,prothrombin time,15 ± 0.4 s
CCN(C(=O)c1cc(F)ccc1Oc1nncnc1N1CCC2(C1)CN([C@H](CCCN(C)CCOC)C(C)C)C2)C(C)C,,,"OCI-AML-3, mouse, disseminated AML model",100 mg/kg,,increase in life span,95%
CC(=O)[O-].O.O.O.O.[Co+2].[O-]c1ccc(Br)cc1C=NCCN1CCOCC1,,DPPH radical scavenging,,200 µM,,inhibition,64.2%
COC1OC(C)C(O)C(OC2OC(C)C(O)C(OC3OC(C)C(O)C(OC4OC(C)C(O)C(OC5OC(C)C(O)C(OC6OC(C)C(O)C(OS(=O)(=O)O)C6OS(=O)(=O)O)C5OS(=O)(=O)O)C4OS(=O)(=O)O)C3OS(=O)(=O)O)C2OS(=O)(=O)O)C1OS(=O)(=O)O (centres unmarked),,,human plasma,128 µg/mL,reference: control,prothrombin time prolongation,0.98 fold
O=C(N/N=C/c1ccc(C[n+]2ccccc2)cc1)N/N=C/c1ccc(C[n+]2ccccc2)cc1,MYC parallel G4 DNA,FRET melting,,"1 µM, DNA 0.2 µM, with: duplex DNA competitor 10 µM",,ΔTm,3.6 ± 0.1 °C
COC1OC(C)C(OC2OC(C)C(OS(=O)(=O)O)C(OC3OC(C)C(OC4OC(C)C(OS(=O)(=O)O)C(OC5OC(C)C(OC6OC(C)C(OS(=O)(=O)O)C(OC7OC(C)C(OC8OC(C)C(OS(=O)(=O)O)C(OS(=O)(=O)O)C8O)C(OS(=O)(=O)O)C7O)C6O)C(OS(=O)(=O)O)C5O)C4O)C(OS(=O)(=O)O)C3O)C2O)C(OS(=O)(=O)O)C1O (centres unmarked),,,human plasma,128 µg/mL,reference: control,prothrombin time prolongation,0.94 fold
C=CC(=O)Nc1cccc(Cn2ncc3cnc(Nc4cnn(CCOC)c4)nc32)c1,human TRKA,KINOMEscan,,100 nM,reference: control,binding,40%
COC1OC(C)C(O)C(OC2OC(C)C(O)C(OC3OC(C)C(O)C(OC4OC(C)C(O)C(OC5OC(C)C(O)C(OC6OC(C)C(O)C(OC7OC(C)C(O)C(OC8OC(C)C(O)C(OC9OC(C)C(O)C(OC%10OC(C)C(O)C(OC%11OC(C)C(O)C(OC%12OC(C)C(O)C(OS(=O)(=O)O)C%12OS(=O)(=O)O)C%11OS(=O)(=O)O)C%10OS(=O)(=O)O)C9OS(=O)(=O)O)C8OS(=O)(=O)O)C7OS(=O)(=O)O)C6OS(=O)(=O)O)C5OS(=O)(=O)O)C4OS(=O)(=O)O)C3OS(=O)(=O)O)C2OS(=O)(=O)O)C1OS(=O)(=O)O (centres unmarked),,,human plasma,128 µg/mL,,prothrombin time,14.5 ± 0.3 s
Nc1ncc(-c2cc(-c3cnn(CC(F)(F)F)c3)ncc2F)nc1C(=O)NC1CNCC(F)C1 (centres unmarked),EPHA3,KINOMEscan,,1 µM,reference: DMSO control,remaining binding,89%

# Excerpt of the above:
SMILES,target or system,assay,system,setting,how to read,measurement,result
COC1OC(C)C(O)C(OC2OC(C)C(O)C(OC3OC(C)C(O)C(OC4OC(C)C(O)C(OC5OC(C)C(O)C(OC6OC(C)C(O)C(OS(=O)(=O)O)C6OS(=O)(=O)O)C5OS(=O)(=O)O)C4OS(=O)(=O)O)C3OS(=O)(=O)O)C2OS(=O)(=O)O)C1OS(=O)(=O)O (centres unmarked),,,human plasma,128 µg/mL,reference: control,prothrombin time prolongation,0.98 fold
O=C(N/N=C/c1ccc(C[n+]2ccccc2)cc1)N/N=C/c1ccc(C[n+]2ccccc2)cc1,MYC parallel G4 DNA,FRET melting,,"1 µM, DNA 0.2 µM, with: duplex DNA competitor 10 µM",,ΔTm,3.6 ± 0.1 °C
COC1OC(C)C(OC2OC(C)C(OS(=O)(=O)O)C(OC3OC(C)C(OC4OC(C)C(OS(=O)(=O)O)C(OC5OC(C)C(OC6OC(C)C(OS(=O)(=O)O)C(OC7OC(C)C(OC8OC(C)C(OS(=O)(=O)O)C(OS(=O)(=O)O)C8O)C(OS(=O)(=O)O)C7O)C6O)C(OS(=O)(=O)O)C5O)C4O)C(OS(=O)(=O)O)C3O)C2O)C(OS(=O)(=O)O)C1O (centres unmarked),,,human plasma,128 µg/mL,reference: control,prothrombin time prolongation,0.94 fold
